Published values gathered from unrelated publications.
Every numbered part comes from another study and shows a few of its results, in no order. “And” joins repeats or separate records; there may be more than shown.
UniProt P42336, sequence (whole entry, looked up): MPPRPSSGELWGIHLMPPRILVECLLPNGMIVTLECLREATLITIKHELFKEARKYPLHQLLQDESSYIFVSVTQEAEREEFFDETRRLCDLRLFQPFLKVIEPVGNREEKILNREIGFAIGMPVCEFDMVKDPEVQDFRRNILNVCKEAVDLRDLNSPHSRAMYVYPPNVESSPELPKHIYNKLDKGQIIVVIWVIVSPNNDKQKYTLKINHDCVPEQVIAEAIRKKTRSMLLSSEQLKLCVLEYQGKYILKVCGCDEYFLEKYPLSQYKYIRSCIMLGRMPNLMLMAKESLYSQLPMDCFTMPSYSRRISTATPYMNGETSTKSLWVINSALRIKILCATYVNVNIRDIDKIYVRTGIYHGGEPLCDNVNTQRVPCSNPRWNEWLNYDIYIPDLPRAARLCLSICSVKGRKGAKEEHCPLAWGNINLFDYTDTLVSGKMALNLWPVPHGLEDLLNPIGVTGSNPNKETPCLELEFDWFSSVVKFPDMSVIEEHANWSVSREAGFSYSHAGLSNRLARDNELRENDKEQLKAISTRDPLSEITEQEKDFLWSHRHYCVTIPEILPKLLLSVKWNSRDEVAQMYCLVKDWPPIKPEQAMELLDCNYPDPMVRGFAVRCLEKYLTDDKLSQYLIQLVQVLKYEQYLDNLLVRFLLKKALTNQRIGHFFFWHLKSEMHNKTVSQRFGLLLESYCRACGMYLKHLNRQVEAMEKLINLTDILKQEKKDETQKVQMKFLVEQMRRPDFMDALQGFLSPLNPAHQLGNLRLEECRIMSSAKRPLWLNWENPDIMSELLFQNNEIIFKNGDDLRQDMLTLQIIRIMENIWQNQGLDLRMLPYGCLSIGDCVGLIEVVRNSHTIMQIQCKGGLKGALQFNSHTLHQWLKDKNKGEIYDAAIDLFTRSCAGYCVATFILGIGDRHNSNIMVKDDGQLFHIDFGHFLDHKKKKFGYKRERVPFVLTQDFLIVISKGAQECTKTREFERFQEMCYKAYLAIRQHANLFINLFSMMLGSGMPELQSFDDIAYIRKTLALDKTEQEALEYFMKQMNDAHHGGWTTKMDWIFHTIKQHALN
UniProt Q13163, sequence (whole entry, looked up): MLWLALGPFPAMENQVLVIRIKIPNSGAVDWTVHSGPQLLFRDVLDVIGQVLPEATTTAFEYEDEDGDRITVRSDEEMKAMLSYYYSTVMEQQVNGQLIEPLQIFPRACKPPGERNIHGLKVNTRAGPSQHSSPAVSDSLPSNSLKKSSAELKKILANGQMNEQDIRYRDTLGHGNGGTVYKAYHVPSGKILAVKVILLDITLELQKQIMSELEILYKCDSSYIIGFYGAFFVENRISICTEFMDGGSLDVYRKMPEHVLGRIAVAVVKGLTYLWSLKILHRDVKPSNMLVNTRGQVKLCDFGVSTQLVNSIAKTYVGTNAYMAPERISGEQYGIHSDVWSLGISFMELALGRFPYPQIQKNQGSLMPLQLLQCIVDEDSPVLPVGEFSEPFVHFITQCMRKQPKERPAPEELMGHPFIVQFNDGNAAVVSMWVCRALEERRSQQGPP
UniProt P48736, sequence (whole entry, looked up): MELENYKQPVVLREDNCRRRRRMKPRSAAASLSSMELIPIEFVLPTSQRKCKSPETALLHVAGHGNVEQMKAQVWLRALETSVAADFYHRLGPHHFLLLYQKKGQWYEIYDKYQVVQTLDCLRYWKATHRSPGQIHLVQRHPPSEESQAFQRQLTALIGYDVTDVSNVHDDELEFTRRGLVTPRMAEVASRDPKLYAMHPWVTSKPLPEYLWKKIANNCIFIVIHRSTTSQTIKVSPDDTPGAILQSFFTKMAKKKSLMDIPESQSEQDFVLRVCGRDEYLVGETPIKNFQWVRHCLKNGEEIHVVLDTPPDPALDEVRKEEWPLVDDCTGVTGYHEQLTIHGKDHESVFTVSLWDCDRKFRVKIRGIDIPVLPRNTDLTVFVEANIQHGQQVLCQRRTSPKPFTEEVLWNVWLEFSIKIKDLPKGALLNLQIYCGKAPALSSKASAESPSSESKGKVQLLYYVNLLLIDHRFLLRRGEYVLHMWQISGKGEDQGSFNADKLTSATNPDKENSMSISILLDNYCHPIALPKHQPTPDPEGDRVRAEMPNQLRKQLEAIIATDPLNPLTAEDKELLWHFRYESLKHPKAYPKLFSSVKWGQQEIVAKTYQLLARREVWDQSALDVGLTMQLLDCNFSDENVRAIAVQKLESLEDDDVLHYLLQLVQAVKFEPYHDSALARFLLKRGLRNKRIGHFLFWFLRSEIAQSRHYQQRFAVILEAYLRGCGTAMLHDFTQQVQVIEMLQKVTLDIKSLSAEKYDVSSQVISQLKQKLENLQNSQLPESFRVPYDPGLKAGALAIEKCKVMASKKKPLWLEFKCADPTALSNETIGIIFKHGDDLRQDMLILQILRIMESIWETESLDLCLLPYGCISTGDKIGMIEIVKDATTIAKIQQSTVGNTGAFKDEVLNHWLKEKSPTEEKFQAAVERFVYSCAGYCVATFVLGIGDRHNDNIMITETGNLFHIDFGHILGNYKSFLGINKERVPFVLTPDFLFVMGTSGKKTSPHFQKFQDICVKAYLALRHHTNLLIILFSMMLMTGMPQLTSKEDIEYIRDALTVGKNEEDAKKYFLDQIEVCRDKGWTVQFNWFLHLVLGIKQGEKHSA
UniProt P54646, sequence (whole entry, looked up): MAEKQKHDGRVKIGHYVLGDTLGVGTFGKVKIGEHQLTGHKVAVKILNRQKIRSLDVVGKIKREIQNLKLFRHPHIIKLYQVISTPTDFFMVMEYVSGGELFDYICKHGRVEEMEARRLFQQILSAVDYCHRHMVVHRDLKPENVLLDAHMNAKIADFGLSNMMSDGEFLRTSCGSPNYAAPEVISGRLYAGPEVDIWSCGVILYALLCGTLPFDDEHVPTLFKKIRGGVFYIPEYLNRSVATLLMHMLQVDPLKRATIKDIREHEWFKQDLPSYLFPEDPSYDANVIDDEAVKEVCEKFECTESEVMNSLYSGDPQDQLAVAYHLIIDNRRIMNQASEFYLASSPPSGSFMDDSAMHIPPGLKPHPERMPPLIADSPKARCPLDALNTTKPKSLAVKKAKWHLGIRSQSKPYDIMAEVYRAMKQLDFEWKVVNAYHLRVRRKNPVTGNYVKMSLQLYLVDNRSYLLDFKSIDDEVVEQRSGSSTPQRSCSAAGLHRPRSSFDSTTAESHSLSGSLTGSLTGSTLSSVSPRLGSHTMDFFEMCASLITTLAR
UniProt Q15418, sequence (whole entry, looked up): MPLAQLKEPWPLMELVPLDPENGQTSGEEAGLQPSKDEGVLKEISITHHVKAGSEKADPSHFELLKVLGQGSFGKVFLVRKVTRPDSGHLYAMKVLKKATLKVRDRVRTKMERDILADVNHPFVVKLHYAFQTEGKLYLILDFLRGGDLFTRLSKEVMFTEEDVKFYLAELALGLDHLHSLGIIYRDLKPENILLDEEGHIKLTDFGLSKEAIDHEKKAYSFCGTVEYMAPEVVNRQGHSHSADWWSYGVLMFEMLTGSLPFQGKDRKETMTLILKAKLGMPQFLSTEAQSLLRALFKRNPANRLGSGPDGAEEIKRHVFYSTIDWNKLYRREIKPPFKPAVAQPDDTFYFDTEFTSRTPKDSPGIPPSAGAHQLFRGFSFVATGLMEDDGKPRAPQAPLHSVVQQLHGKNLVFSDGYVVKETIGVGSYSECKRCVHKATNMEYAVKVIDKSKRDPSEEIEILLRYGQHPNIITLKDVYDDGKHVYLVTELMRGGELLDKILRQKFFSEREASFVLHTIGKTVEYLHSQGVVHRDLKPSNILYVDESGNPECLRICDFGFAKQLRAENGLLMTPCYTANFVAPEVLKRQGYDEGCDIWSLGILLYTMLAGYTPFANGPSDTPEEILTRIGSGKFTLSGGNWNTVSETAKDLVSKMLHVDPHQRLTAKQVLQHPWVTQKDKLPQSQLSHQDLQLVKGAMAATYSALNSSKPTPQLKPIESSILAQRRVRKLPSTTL

Study 1 — host: human; matrix: microsomes or S9; concentration: 2 µM; time: 0.5 h
SMILES | remaining compound
CC(C)=CCc1c2c(c3occ(-c4ccc(O)c(O)c4)c(=O)c3c1O)C=CC(C)(C)O2 | 45.3%
CCCC(=O)OC[C@@H](OC(=O)CCC)[C@@H](OC(=O)CCC)[C@H](Cn1c2nc(=O)[nH]c(=O)c-2nc2cc(C)c(C)cc21)OC(=O)CCC | 56.3%
CCC(CO)NCc1ccc(OCc2cccs2)cc1 (centres unmarked) | 9.61%
Clc1ccccc1C1NCCc2c1[nH]c1ccccc21 (centres unmarked) | 92.1%
Cc1ccc(CN2CCC(CNC(=O)c3c4c(nc5ccccc35)C(=O)N(C3CCCCC3)C4)C2)cc1 (centres unmarked) | 12.6%

Study 2 — read-out: cell-free assay; technique: competition with immobilised ligand; concentration: 1 µM
Compound: CN([C@@H]1CCc2c(CC(=O)O)c3ccccc3n2C1)S(=O)(=O)c1ccc(F)cc1
target | remaining binding
PIK3CA (Homo sapiens, UniProt P42336) | 100%
MAP2K5 (Homo sapiens, UniProt Q13163) | 100%
PRKAA2 (Homo sapiens, UniProt P54646) | 100%
Ribosomal protein S6 kinase alpha-1, N-terminal kinase domain (RPS6KA1, Homo sapiens, UniProt Q15418) | 100%
PIK3CG (Homo sapiens, UniProt P48736) | 100%

Study 3 — read-out: enzyme activity; mode: inhibitor; concentration: 0.5 µM; reference: control
Target: Ephrin type-A receptor 7 (EPHA7, Homo sapiens, UniProt Q15375)
UniProt Q15375, sequence (whole entry, looked up): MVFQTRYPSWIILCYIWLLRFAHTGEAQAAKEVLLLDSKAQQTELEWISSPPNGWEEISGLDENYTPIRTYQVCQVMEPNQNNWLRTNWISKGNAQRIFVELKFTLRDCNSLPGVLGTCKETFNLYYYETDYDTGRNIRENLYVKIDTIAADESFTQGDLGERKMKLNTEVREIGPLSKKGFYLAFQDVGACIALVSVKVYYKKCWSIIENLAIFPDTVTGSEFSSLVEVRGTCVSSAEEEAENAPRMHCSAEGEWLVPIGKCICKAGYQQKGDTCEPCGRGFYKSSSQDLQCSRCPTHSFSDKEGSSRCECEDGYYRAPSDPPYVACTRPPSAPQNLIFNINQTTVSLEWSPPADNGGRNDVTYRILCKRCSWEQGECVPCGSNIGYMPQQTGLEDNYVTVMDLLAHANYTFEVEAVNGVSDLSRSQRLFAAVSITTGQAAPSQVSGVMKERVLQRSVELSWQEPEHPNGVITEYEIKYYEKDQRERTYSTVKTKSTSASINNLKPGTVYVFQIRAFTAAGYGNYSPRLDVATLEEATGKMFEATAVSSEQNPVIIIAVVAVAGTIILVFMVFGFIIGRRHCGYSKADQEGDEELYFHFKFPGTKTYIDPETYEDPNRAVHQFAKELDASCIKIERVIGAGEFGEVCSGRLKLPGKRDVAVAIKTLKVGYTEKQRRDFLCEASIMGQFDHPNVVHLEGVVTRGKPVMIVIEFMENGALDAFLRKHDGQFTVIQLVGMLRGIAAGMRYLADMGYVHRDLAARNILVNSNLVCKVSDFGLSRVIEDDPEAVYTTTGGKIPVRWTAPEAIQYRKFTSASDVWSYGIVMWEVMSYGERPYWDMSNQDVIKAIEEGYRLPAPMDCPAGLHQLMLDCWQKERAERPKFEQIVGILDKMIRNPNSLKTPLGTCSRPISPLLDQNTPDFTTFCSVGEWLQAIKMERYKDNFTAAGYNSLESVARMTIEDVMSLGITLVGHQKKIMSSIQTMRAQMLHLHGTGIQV
SMILES | remaining activity
CC(C)[C@H](CO)Nc1nc(Nc2cc(N)cc(Cl)c2)c2ncn(C(C)C)c2n1 | 80.2%
COc1ccc(CNC(=O)Nc2ncc([N+](=O)[O-])s2)cc1 | 96.6%
O=S(=O)(c1cccc2cnccc12)N1CCCNCC1 | 97.3%
O=C(O)c1ccc2c3c1cccc3c(=O)n1c3ccccc3nc21 | 103%
O=C(Nc1cccc(Nc2cc(Nc3cccc(C(F)(F)F)c3)ncn2)c1)C1CC1 | 101%
NCCNc1ncc(C(N)=O)c(Nc2cccc(C(F)(F)F)c2)n1 | 82%
COc1cc2ncnc(Nc3ccc(Oc4ccccc4)cc3)c2cc1OC | 100%
Nc1ncnc2n[nH]c(Nc3ccc(F)cc3)c12 | 101%
Cc1cccc(-c2[nH]c(C(C)(C)C)nc2-c2ccc3c(c2)OCO3)n1 | 81.6%
COc1ccc(C(=O)Nc2sc3c(c2C(N)=O)CCCC3)cc1OC | 96.2%
C#Cc1cccc(Nc2ncnc3cc(OCCOC)c(OCCOC)cc23)c1 | 69.8%
Cc1ccc(Nc2nccc(N(C)c3ccc4c(C)n(C)nc4c3)n2)cc1S(N)(=O)=O | 94.1%
Nc1ccc2ncnc(NCCc3ccc(Oc4ccccc4)cc3)c2c1 | 104%
CNC(=O)c1cc(Oc2ccc(NC(=O)Nc3ccc(Cl)c(C(F)(F)F)c3)cc2)ccn1 | 80.7%
Oc1ccc(-c2nc(-c3ccncc3)c(-c3ccc(F)cc3)[nH]2)cc1 | 86.1%

Study 4 — cell line: A-375; concentration: 100 µM; time: 36 h
Compound | viability [%]
C[C@]12CC[C@@H]3c4ccc(O)cc4CC[C@H]3[C@@H]1CC[C@@H]2O | 48.3
COc1ccc2c(c1)C(=O)N(CCc1ccc(S(=O)(=O)NC(=O)NC3CCCCC3)cc1)C(=O)C2(C)C | 86.7
CC1CCC(C(C)C)C(O)C1 (racemic) | 101
N#CCC(C1CCCC1)n1cc(-c2ncnc3[nH]ccc23)cn1 (centres unmarked) | 46.1
Cn1c(=O)cc(N2CCC[C@@H](N)C2)n(Cc2ccccc2C#N)c1=O | 91.7

Other studies, line by line
SMILES | target or system | test | system | conditions | how to read | measurement | value
COc1ccc(-c2c(Nc3ccccn3)[nH]c3c(C4=CCCCC4)c(-c4ccccc4)nn3c2=O)cc1 | – | – | human, plasma | oral, 200 mg twice daily | – | AUMC(0-tau) | 699000 h²·ng/mL and 751000 h²·ng/mL and 710000 h²·ng/mL
CC(C)(C)c1cnc(CSc2cnc(NC(=O)C3CCNCC3)s2)o1 | HH | trypan blue exclusion | – | 10 µM, 48 h | reference: untreated | viability | 0.782% and 0.729% and 3.14%
